# Measured values collected from several papers.
# Compare with care: the assays were run in different laboratories. ± gives the spread as reported.
# ESR2: Estrogen receptor beta (ESR2, Homo sapiens, UniProt Q92731)
# Sequence of UniProt Q92731 (whole entry, looked up): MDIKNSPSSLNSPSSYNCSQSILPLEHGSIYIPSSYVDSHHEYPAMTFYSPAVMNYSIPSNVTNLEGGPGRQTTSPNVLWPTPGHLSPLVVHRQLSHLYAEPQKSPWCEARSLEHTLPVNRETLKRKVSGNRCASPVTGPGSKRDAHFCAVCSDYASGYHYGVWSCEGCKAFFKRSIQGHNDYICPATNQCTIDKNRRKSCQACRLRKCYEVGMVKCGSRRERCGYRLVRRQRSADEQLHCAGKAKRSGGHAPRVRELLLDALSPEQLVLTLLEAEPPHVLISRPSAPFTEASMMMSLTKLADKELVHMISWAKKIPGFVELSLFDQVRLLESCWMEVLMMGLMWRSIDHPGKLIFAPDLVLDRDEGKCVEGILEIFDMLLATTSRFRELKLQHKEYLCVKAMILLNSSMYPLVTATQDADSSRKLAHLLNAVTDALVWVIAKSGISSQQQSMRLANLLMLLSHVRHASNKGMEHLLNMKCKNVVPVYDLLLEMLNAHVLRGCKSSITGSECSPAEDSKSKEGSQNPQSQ
# BRAP ZnF-UBD domain: BRCA1-associated protein, ZnF-UBD domain (BRAP, Homo sapiens, UniProt Q7Z569)
# Sequence of UniProt Q7Z569 (whole entry, looked up): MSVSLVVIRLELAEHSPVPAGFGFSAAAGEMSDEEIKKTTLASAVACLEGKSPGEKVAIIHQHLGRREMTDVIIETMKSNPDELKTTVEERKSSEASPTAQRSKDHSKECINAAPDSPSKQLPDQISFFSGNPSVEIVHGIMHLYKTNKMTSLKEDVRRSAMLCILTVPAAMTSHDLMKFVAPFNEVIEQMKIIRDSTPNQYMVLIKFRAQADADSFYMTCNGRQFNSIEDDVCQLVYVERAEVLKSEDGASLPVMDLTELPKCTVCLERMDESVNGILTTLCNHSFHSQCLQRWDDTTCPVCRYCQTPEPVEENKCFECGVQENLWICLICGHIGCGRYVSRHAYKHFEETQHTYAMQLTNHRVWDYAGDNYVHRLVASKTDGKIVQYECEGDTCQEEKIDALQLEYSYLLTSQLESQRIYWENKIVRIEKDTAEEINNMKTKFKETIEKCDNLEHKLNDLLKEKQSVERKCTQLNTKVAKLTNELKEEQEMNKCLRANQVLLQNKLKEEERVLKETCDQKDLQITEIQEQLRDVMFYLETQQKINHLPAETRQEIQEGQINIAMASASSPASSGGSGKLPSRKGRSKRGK
# Sequence of UniProt Q9NQS5 (whole entry, looked up): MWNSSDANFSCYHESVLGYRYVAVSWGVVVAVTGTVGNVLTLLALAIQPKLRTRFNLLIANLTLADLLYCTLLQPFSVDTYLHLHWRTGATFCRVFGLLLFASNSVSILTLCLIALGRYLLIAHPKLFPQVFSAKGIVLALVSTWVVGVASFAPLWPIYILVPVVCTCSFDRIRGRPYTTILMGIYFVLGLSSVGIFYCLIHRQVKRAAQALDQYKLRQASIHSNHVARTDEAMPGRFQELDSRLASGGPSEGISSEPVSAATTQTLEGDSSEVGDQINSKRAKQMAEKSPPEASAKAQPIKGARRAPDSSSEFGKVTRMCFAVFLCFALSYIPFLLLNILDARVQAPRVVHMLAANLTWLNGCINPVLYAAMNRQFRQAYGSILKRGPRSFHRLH
SMILES,target or system,assay,system,setting,scale,measurement,value
CC(C)C[C@H](NC(=O)C[C@H](O)[C@H](CC(C)C)NC(=O)[C@H](Cc1c[nH]cn1)NC(=O)CNC(=O)[C@@H](NC(=O)[C@H](C)NC(=O)[C@H](Cc1c[nH]c2ccccc12)NC(=O)[C@H](CCC(N)=O)NC(=O)[C@@H](Cc1ccccc1)NC(=O)COCCOCCNC(=O)CCC(C(=O)O)N1CCN(CC(=O)O)CCN(CC(=O)O)CC1)C(C)C)C(N)=O (stereo partly drawn) [lutetium-177 labelled],,,"female BALB/c nu/nu mice, muscle","intravenous, 50 pmol, 1 h",,tissue uptake,0.1 ± 0.04 %ID/g
COC(=O)C1=C(C)NC(C)=C(C(=O)OCCN2CCN(C(c3ccccc3)c3ccccc3)CC2)C1c1cccc([N+](=O)[O-])c1.Cl.Cl (stereo not drawn),Nedd8-cullin1 interaction,"neddylation, AlphaScreen",,100 µM,,inhibition,40.8%
CC1=C(Cn2cc(C(C)(C)O)nn2)C(=O)c2ccccc2C1=O,Schistosoma mansoni,,adult worms,"25 µM, 48 h",,killing,44.8%
O=C(O)CNC(=O)Cc1ccccc1,,,"ventricular cardiomyocytes, C57BL/6 mouse","dose not given, 0.632 s",,sarcomere length,1.7 µm
CCn1cc(-c2cc(Cn3ccoc3=N)cc3c2CCN([C@@H](C)c2cc(OC)ccn2)C3=O)c(C(F)(F)F)n1,HEC151,cell growth,,120 h,,EC50,107 nM
CC(C)NCC(O)c1ccc(O)c(O)c1 (stereo not drawn),,,"ventricular cardiomyocytes, C57BL/6 mouse","dose not given, 0.596 s",,sarcomere length,1.66 µm
CC(=O)Oc1cc2c(s1)CCN(C(C(=O)C1CC1)c1ccccc1F)C2 (stereo not drawn),Nedd8-cullin1 interaction,"neddylation, AlphaScreen",,100 µM,,inhibition,-9.1%
O=c1cc(-c2ccc(O)cc2)oc2cc(O[C@@H]3O[C@H](CO)[C@@H](O)[C@H](O)[C@H]3O)cc(O)c12,ESR2,"array formation, agonist",GFP-ERβ PRL-HeLa,1 h,,EC50,2470 nM
CCCCCCCCCNc1cc(=O)[nH]c(=O)[nH]1,"GPR84 (Homo sapiens, UniProt Q9NQS5)","cAMP level, agonist",human cells,,,EC50,29.9 ± 10 nM
CC1=C(Cn2cc(CN3CCN(C(=O)OC(C)(C)C)CC3)nn2)C(=O)c2ccccc2C1=O,Schistosoma mansoni,,adult worms,"25 µM, 24 h",,killing,43.8%
COc1cnc2cccc(N3CCc4c(cc(Cn5ccnc5C)cc4-c4cn(C)nc4C(F)(F)F)C3=O)c2c1,Hs 294T,"cell growth, inhibitor",,120 h,,EC50,3160 nM
COc1ccc(-n2nc(C(N)=O)c3c2C(=O)N(c2ccc(N4CCCCC4=O)cc2)CC3)cc1,Nedd8-cullin1 interaction,"neddylation, AlphaScreen",,100 µM,,inhibition,26.9%
O=c1c(O[C@@H]2O[C@H](CO)[C@@H](O)[C@H](O)[C@H]2O)c(-c2ccc(O)c(O)c2)oc2cc(O)cc(O)c12,ESR2,"array formation, agonist",GFP-ERβ PRL-HeLa,1 h,,EC50,1520 nM
O=C(O)CCC(=O)c1ccc(S(=O)(=O)N2CCCC2)cc1,BRAP ZnF-UBD domain,,,,,Kd,340000 nM
COC(=O)C1=C(C)NC(C)=C(C(=O)OCC(C)C)C1c1ccccc1[N+](=O)[O-] (stereo not drawn),Nedd8-cullin1 interaction,"neddylation, AlphaScreen",,100 µM,,inhibition,36%
Cn1cc(-c2ccc(-c3cncc(Cl)c3N3CCC4(CCNC4=O)CC3)cc2)cn1,COLO 205,"gene expression, microarray, item: SPEF1 mRNA",,"concentration not given, 6 h",relative to: untreated cells,log2 fold change,2.18
COCCOC(=O)C1=C(C)NC(C)=C(C(=O)OC/C=C/c2ccccc2)C1c1cccc([N+](=O)[O-])c1 (stereo not drawn),Nedd8-cullin1 interaction,"neddylation, AlphaScreen",,100 µM,,inhibition,15.8%
CC1=C(Cn2ccnn2)C(=O)c2ccccc2C1=O,Schistosoma mansoni,,adult worms,"25 µM, 48 h",,killing,50%
CCn1cc(-c2cc(Cn3ccnc3)cc3c2CCN([C@H](c2cc(OC)ccn2)C2CC2)C3=O)c(C(F)(F)F)n1,NCI-H596,"cell growth, inhibitor",,120 h,,EC50,6900 nM
CC1=C(Cn2cc(CN)nn2)C(=O)c2ccccc2C1=O,Schistosoma mansoni,,adult worms,"10 µM, 48 h",,killing,44.4%
O=C(O)COc1cnc2ccccc2n1,BRAP ZnF-UBD domain,,,,,Kd,885000 nM

# Repeated from above:
SMILES,target or system,assay,system,setting,scale,measurement,value
CCn1cc(-c2cc(Cn3ccoc3=N)cc3c2CCN([C@@H](C)c2cc(OC)ccn2)C3=O)c(C(F)(F)F)n1,HEC151,cell growth,,120 h,,EC50,107 nM
O=c1c(O[C@@H]2O[C@H](CO)[C@@H](O)[C@H](O)[C@H]2O)c(-c2ccc(O)c(O)c2)oc2cc(O)cc(O)c12,ESR2,"array formation, agonist",GFP-ERβ PRL-HeLa,1 h,,EC50,1520 nM
